Experimental data gathered from unrelated publications.
Lines come from different studies, so protocols differ. ± gives the spread as reported. Square brackets hold non-standard residues; d marks the D form. Ends that are not written are not given here. No end group written: not given here.
GLP1R: GLP1R (Homo sapiens, UniProt P43220)
B1: GPIHBP1 21-151 (Homo sapiens, UniProt Q8IV16); sequence looked up; chain QTQQEEEEEDEDHGPDDYDEEDEDEVEEEETNRLPGGRSRVLLRCYTCKSLPRDERCNLTQNCSHGQTCTTLIAHGNTESGLLTTHSTWCTDSCQPITKTVEGTQVTMTCCQSSLCNVPPWQSSRVQDPTG
B2: STX8 (Homo sapiens, UniProt Q9UNK0); chain MAPDPWFSTYDSTCQIAQEIAEKIQQRNQYERKGEKAPKLTVTIRALLQNLKEKIALLKDLLLRAVSTHQITQLEGDRRQNLLDDLVTRERLLLASFKNEGAEPDLIRSSLMSEEAKRGAPNPWLFEEPEETRGLGFDEIRQQQQKIIQEQDAGLDALSSIISRQKQMGQEIGNELDEQNEIIDDLANLVENTDEKLRNETRRVNMVDRKSASCGMIMVILLLLVAIVVVAVWPTN
B3: enzyme (Bacillus pumilus, UniProt A8FFI9); chain EARSIAWSVDEFFKNREGTFVIQEVKEKSPWVYNKKRAKERFAPQSTFKVANALIGLQTGAVRDEYDIKYWDGVKREIDNWNRDHTLGSGMRDSVVWYYQAMARDIGEERMNHWVKAIHYGNKDISGGIDQFWLSSTLRISPIEQVRFLKQLYEETLPFDLKNMRTVKRMMVQEEEKHATLYGKTGSGSDIGWYVGFIKHEHKTYILATNIKGTGIEAKDITYRILKKYHLMEASV
UniProt Q6PL18, sequence (whole entry, unmodified, looked up): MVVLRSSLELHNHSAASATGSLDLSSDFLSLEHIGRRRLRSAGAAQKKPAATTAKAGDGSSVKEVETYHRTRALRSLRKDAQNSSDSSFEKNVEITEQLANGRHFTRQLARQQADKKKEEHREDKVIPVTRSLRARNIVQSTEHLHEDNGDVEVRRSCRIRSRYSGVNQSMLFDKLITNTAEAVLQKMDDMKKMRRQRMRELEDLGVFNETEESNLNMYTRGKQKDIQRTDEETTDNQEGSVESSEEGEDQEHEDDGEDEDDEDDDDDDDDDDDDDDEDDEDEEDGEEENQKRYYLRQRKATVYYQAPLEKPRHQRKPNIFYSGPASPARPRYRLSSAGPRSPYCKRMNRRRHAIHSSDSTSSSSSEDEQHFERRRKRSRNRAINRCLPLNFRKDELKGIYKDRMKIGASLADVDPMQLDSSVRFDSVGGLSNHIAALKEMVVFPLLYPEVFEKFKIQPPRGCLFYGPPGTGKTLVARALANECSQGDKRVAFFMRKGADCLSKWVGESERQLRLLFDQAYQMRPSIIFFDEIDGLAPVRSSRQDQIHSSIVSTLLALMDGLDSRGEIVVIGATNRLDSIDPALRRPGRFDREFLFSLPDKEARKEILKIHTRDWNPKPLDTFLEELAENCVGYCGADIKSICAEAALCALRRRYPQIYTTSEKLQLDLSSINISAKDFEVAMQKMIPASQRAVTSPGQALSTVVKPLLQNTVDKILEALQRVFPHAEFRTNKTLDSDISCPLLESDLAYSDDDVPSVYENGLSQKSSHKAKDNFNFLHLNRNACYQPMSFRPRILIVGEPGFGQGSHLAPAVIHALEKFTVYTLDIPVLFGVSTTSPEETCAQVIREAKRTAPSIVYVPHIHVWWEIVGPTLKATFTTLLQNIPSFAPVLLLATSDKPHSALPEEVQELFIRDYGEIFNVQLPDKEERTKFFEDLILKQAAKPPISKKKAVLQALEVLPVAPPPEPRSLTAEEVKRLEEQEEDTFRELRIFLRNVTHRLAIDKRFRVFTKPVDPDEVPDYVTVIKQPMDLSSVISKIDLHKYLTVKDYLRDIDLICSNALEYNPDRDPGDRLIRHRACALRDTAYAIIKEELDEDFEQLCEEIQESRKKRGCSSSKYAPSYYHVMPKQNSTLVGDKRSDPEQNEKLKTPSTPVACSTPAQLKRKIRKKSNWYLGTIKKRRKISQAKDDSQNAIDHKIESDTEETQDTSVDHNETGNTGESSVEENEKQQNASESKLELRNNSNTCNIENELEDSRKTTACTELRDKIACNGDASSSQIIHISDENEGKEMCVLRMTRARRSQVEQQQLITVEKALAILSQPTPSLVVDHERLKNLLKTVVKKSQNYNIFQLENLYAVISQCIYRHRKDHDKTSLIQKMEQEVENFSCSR
UniProt P00429, sequence (whole entry, looked up): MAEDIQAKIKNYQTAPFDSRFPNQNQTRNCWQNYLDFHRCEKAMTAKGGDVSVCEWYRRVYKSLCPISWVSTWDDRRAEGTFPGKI
UniProt O60656, sequence (whole entry, looked up): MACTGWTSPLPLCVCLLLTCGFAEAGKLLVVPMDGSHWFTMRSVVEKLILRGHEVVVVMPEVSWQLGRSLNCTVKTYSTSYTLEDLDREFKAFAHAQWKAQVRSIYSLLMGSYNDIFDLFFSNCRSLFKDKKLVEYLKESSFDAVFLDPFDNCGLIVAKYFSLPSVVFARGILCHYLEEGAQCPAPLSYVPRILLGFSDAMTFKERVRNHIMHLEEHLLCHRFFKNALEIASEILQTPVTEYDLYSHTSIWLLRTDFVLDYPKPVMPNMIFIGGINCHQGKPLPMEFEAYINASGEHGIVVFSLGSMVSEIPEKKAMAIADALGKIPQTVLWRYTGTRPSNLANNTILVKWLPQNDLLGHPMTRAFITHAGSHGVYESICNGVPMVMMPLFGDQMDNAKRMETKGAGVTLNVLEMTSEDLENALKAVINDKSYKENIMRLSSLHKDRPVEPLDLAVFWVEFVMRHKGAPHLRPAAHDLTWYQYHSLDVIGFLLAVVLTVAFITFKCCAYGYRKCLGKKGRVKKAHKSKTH
UniProt P49685, sequence (whole entry, looked up): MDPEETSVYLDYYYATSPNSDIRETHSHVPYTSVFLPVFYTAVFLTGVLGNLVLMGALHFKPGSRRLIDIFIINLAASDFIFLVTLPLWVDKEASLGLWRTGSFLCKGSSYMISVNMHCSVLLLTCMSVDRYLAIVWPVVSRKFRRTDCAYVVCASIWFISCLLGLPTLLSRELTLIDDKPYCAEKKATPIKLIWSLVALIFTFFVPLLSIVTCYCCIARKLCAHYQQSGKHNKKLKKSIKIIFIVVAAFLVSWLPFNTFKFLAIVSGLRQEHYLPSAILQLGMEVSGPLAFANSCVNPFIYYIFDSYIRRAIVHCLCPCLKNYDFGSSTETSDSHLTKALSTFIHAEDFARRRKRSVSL
UniProt O14965, sequence (whole entry, looked up): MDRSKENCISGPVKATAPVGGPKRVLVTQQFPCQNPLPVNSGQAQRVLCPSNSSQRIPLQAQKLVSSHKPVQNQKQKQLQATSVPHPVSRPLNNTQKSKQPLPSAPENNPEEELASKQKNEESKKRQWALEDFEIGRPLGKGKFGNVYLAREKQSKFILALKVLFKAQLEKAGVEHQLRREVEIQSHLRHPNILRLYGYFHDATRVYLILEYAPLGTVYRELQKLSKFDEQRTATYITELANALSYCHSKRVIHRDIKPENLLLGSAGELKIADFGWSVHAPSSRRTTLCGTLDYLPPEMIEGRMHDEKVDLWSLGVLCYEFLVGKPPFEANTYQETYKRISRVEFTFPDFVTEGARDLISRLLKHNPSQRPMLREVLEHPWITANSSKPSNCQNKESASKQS
UniProt Q9UNE7, sequence (whole entry, looked up): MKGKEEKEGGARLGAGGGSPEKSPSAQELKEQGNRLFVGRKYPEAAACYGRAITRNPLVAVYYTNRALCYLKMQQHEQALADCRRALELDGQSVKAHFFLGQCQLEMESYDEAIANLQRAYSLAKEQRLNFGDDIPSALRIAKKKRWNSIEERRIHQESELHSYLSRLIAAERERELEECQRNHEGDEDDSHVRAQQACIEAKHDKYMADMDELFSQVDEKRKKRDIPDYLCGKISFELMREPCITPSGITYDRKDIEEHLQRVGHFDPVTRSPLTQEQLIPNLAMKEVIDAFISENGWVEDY
UniProt Q8CFN5, sequence (whole entry, looked up): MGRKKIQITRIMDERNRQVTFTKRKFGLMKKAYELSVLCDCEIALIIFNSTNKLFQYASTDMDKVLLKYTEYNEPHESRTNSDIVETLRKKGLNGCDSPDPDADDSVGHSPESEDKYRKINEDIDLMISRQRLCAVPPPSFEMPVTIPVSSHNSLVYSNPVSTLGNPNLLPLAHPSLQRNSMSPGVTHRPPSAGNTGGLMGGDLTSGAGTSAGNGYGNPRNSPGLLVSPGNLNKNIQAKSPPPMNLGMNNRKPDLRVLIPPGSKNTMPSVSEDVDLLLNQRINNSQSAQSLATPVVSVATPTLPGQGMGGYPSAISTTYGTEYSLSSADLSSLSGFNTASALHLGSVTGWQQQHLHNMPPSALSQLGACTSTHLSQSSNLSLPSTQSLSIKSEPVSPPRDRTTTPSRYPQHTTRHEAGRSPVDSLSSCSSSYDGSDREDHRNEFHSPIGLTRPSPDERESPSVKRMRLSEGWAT
UniProt O54912, sequence (whole entry, looked up): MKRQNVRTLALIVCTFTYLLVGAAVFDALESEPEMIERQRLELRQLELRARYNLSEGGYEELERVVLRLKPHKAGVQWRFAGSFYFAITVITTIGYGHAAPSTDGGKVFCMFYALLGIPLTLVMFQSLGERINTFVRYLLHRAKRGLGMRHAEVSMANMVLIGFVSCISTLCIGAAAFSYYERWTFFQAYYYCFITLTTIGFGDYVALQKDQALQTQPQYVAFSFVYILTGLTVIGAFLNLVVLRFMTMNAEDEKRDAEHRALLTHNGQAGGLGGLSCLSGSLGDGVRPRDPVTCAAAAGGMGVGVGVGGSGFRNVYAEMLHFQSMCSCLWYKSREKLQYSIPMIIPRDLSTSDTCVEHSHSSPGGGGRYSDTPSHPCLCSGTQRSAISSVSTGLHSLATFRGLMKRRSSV
UniProt Q8MQJ9, sequence (whole entry, looked up): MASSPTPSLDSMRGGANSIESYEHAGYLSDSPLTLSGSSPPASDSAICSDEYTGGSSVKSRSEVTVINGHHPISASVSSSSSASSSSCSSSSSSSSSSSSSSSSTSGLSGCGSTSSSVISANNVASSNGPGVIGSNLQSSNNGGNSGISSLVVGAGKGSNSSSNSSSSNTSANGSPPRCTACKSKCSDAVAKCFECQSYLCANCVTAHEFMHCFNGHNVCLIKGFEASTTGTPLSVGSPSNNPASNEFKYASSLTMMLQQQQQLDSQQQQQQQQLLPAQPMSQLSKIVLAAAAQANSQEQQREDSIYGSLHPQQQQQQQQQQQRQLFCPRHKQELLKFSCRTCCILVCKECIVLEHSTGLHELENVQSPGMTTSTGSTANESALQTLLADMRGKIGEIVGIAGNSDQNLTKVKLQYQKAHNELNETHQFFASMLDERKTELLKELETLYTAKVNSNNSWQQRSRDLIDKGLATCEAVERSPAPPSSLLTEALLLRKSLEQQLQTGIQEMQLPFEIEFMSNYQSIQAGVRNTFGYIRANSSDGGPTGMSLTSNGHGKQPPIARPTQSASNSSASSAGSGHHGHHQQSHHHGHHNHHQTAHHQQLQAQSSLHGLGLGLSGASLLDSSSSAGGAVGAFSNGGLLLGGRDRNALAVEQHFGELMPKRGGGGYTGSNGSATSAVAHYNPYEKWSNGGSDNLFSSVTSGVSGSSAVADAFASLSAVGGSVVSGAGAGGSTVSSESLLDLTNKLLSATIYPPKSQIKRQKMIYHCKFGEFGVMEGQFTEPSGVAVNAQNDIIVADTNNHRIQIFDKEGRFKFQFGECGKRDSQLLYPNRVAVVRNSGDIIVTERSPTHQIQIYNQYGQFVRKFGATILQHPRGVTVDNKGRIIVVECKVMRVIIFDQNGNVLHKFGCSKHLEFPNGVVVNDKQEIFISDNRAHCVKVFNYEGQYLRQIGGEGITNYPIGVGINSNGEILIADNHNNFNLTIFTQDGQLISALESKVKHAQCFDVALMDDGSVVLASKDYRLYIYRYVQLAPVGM

For `TPDYLMQLMNDKKLMSSLPNFSGIFNHLERLADEEISRVRKDMYNDTLNGSTEK (Qki 14-67 C35S/L45A (Mus musculus, UniProt Q9QYS9))`, the melting temperature was 40 °C (itself; CD thermal melting; 50 µM).
With `SGRGK(Ac)GGKGL (histone H4 residues 1-10; acetylated K5)` the ΔH was -8.3 kcal/mol (ATAD2 bromodomain 981-1108, Cys1057-Cys1079 disulfide (Homo sapiens, UniProt Q6PL18); ITC; peptide).
`rat amylin`: “aggregation lag time” 50 min (IAPP (Homo sapiens, UniProt P10997); ThT fluorescence; 4 molar equivalents, pH 7.2, 2% HFIP).
`B1 (GPIHBP1 21-151)` — result for “molecule per partner”: 1 (LPL mature R324A (Homo sapiens, UniProt P06858); native gel electrophoresis).
`GGGAGACCUAGCCUCAUAUAAUCGUUGUCCAGAAUUGUAUAUAUUCGUAGCAUAAGUUUUCCAAACAUUAUUUUGUUGUCGAAAAUUGUACAUAAGCCAAUUAAGCCGCUAAUUCU (ssRNA)`: binding “binds” (brat 756-1037 (Drosophila melanogaster, UniProt Q8MQJ9); competition).
`B2 (STX8)` gave a current amplitude of 50% (Kcnk3 (Rattus norvegicus, UniProt O54912); whole-cell patch clamp; CHO; relative to: TASK-1 alone, higher = larger current).
The kcat/Km of `B3 (enzyme)` is reported as 3300 ± 400 M⁻¹ s⁻¹ (C[C@@H](O)[C@H]1C(=O)N2C(C(=O)O)=C(S[C@@H]3CN[C@H](C(=O)N(C)C)C3)[C@H](C)[C@H]12; steady-state kinetics; pH 7).
For `liraglutide`, the EC50 was 0.004 nM (GLP1R; reporter gene, agonist, CRE luciferase reporter; HEK293).
For `RRRRRRRC / CKNYKKTEV (CRIPT C-terminal PBM; cyclic; disulfide to poly-arginine)`, the koff was 0.00109 s⁻¹ (DLG4 309-422 (Homo sapiens, UniProt P78352); SPR; peptide; pH 7.5, NaCl 100 mM).
The IC50 of `EDFRSGSEAFDLIAQDEEEFNKEHQFIQEEN (CEP192 506-536 (Homo sapiens, UniProt Q8TEP8))` is reported as 21000 nM (AURKA kinase domain 123-403, phosphorylated (Homo sapiens, UniProt O14965); competition with labeled peptide, fluorescence polarization; peptide).
`human Hsc70` gave a Kd of 60 ± 7 nM (STUB1 (Homo sapiens, UniProt Q9UNE7); binder, biolayer interferometry; pH 7.4, 25 °C, equilibrium saturation fit).
For `LWVVPGALPQV (C10orf99 71-81 (Homo sapiens))`, the pEC50 was 6.39 (GPR15 (Homo sapiens, UniProt P49685); inhibition of forskolin-stimulated cAMP, agonist, HTRF; peptide, HEK293A-GPR15).
With `Gli2 (Mus musculus, UniProt Q0VGT2)` the relative binding was 5 fold (Mef2c (Mus musculus, UniProt Q8CFN5); co-IP; P19; relative to: P19-TAP, higher = more Gli2 pulled down).
`CTATTTCTCCTGGTAAGGAATCATCTGGTACATTTACATCATTACCACATATTGGACATTTTAATAGTACCATGATGGATCGAATAGAAATATAAAGTAAGCAGTTGAAAAGCTTTTATGAAATAAAAGGTTCGAAATTAGTACCAAACTCTAAGCACTATAGTACTGTTTGTACTTATAACGCCCTG (dsDNA)`: binding “binds” (lysM 1-140 (Sulfolobus acidocaldarius, UniProt Q4JAQ1); EMSA; double-stranded DNA, one strand shown).
`COX6B1 (Bos taurus, UniProt P00429)`: “urea midpoint for subunit dissociation” 3.5 M (cytochrome c oxidase eight-subunit core (Bos taurus, UniProt P00396); anion exchange chromatography, RP-HPLC, SDS-PAGE; 120 min, pH 7.2, room temperature, apparent, partly coupled to unfolding).
With `UGT1A9 (Homo sapiens, UniProt O60656)` the Vmax/Km was 2010 µL/min/mg (Cc1c(-c2ccccc2)oc2cc(O)ccc2c1=O; steady-state kinetics; pH 7.4, 37 °C).
`PTH fragment (Homo sapiens)` — result for “cAMP signaling EC50”: 0.095 nM (PTH1R (Homo sapiens, UniProt Q03431); cAMP luminescence; SGS-72).
With `H[dS]QGTFTSDYSKYLDSRRAQ[dC]FVQWLMCTKRNRNNIA-NH2 (oxyntomodulin analog D21C/N28C, D-Ser2, D-Cys21, C-terminal amide; cysteine pairing not given here; D-Ser2, D-Cys21, C-terminal amide)` the EC50 was greater than 2000 nM (GLP1R; reporter gene, agonist, CRE luciferase reporter; peptide, HEK293).
